Experimental data pooled from the literature.
Protocols differ between the studies behind these lines. Several values in a cell are separate wells, animals, samples, runs or records. ± gives the spread as reported. Values after ≈ are worked out from the molar mass of the structure shown.

`CSCC[C@H](N)C(=O)N[C@@H](C)C(=O)N[C@@H](CCCNC(=N)N)C(=O)N[C@@H](CCCNC(=N)N)C(=O)N[C@@H](CC(=O)O)C(=O)N[C@@H](CCCCN)C(=O)N[C@H](C(=O)N[C@@H](CC(=O)O)C(=O)N[C@@H](Cc1ccccc1)C(=O)N[C@@H](C)C(=O)N[C@@H](CCCNC(=N)N)C(=O)N[C@@H](CCCNC(=N)N)C(=O)N[C@@H](CCCNC(=N)N)C(=O)N[C@@H](CCCNC(=N)N)C(=O)NCCCCCC(=O)NCCCCC(NC(=O)CCCCCNC(=O)[C@H](CCCNC(=N)N)NC(=O)[C@H](CCCNC(=N)N)NC(=O)[C@H](CCCNC(=N)N)NC(=O)[C@H](CCCNC(=N)N)NC(=O)[C@H](C)NC(=O)[C@H](Cc1ccccc1)NC(=O)[C@H](CC(=O)O)NC(=O)[C@@H](NC(=O)[C@H](CCCCN)NC(=O)[C@H](CC(=O)O)NC(=O)[C@H](CCCNC(=N)N)NC(=O)[C@H](CCCNC(=N)N)NC(=O)[C@H](C)NC(=O)[C@@H](N)CCSC)[C@@H](C)O)C(=O)NCCCCC(NC(=O)C(CCCCNC(=O)CCCCCNC(=O)[C@H](CCCNC(=N)N)NC(=O)[C@H](CCCNC(=N)N)NC(=O)[C@H](CCCNC(=N)N)NC(=O)[C@H](CCCNC(=N)N)NC(=O)[C@H](C)NC(=O)[C@H](Cc1ccccc1)NC(=O)[C@H](CC(=O)O)NC(=O)[C@@H](NC(=O)[C@H](CCCCN)NC(=O)[C@H](CC(=O)O)NC(=O)[C@H](CCCNC(=N)N)NC(=O)[C@H](CCCNC(=N)N)NC(=O)[C@H](C)NC(=O)[C@@H](N)CCSC)[C@@H](C)O)NC(=O)CCCCCNC(=O)[C@H](CCCNC(=N)N)NC(=O)[C@H](CCCNC(=N)N)NC(=O)[C@H](CCCNC(=N)N)NC(=O)[C@H](CCCNC(=N)N)NC(=O)[C@H](C)NC(=O)[C@H](Cc1ccccc1)NC(=O)[C@H](CC(=O)O)NC(=O)[C@@H](NC(=O)[C@H](CCCCN)NC(=O)[C@H](CC(=O)O)NC(=O)[C@H](CCCNC(=N)N)NC(=O)[C@H](CCCNC(=N)N)NC(=O)[C@H](C)NC(=O)[C@@H](N)CCSC)[C@@H](C)O)C(N)=O)[C@@H](C)O` (stereo partly shown) gave a tissue distribution of 0.16% and 0.32% and 0.37% (C57BL/6 mouse female, brain; dose not given, 6 h; reference: total).
`N#[11C]c1ccc(-c2csc(NN=C3CCCC3)n2)cc1` gave an unchanged compound of 28% and 27.5% (radio-HPLC; C57BL/6 mouse, plasma; intravenous, 37 MBq, 5 min).
With `CC[C@H](C)[C@H](NC(=O)[C@H](CCCCN)NC(=O)CNC(=O)[C@H](CC(C)C)NC(=O)[C@H](Cc1ccccc1)NC(=O)[C@H](CCCCN)NC(=O)[C@H](CO)NC(=O)[C@H](Cc1ccccc1)NC(=O)[C@H](Cc1c[nH]c2ccccc12)NC(=O)[C@H](CCC(N)=O)NC(=O)[C@@H](NC(=O)[C@H](Cc1ccccc1)NC(=O)CCCCCNC(=O)CN1CCN(CC(=O)O)CCN(CC(=O)O)CCN(CC(=O)O)CC1)C(C)C)C(=O)N[C@@H](CCC(=O)O)C(=O)N1CCC[C@H]1C(=O)N[C@H](CC(=O)O)C(=O)N[C@H](C(=O)N[C@@H](CO)C(=O)N[C@@H](CCC(N)=O)C(=O)N[C@H](C(=O)N[C@@H](CCC(N)=O)C(=O)N[C@@H](CC(=O)O)C(=O)N1CCC[C@H]1C(=O)N[C@@H](CC(N)=O)C(=O)N[C@@H](CC(=O)O)C(=O)N[C@@H](CCC(N)=O)C(=O)N[C@@H](Cc1ccc(O)cc1)C(=O)N[C@@H](CCC(=O)O)C(=O)N1CCC[C@H]1C(=O)N[C@@H](Cc1ccccc1)C(=O)O)C(C)C)C(C)C` [copper-64 labelled] the tissue uptake was 1.83 ± 0.26 %ID/g (female mice, EMT6 tumour-bearing, spleen; 2 h, uncleavable control tracer, checkpoint inhibitor-treated).
`CC(=O)CCC1C(=O)NC(C(C)C)C(=O)NC(Cc2cc(O)cc(F)c2)C(=O)N2CCCC(N2)C(=O)OC(C(C)=CC=CC(=O)N2CCCCO2)CC=CC=CC(O)C(C)C1O` (stereo not shown) gave a total bilirubin of 3.7 µM (CD-1 mice, serum; oral, 250 mg/kg repeated, day 7).
The MCHC of `C=CC(=O)Nc1cccc(Cn2ncc3cnc(Nc4cnn(CCOC)c4)nc32)c1` is reported as 374 ± 16.4 g/L (Sprague-Dawley rat male, blood; oral, 180 mg/kg, day 28, 28-day subacute toxicity).
`CCCCCCCCCCCCCCCC(=O)OCC(CSC[C@H](N)C(=O)N[C@@H](CO)C(=O)N[C@@H](CCCCN)C(=O)N[C@@H](CCCCN)C(=O)N[C@@H](CCCCN)C(=O)N[C@@H](CCCCN)C(=O)NCCCCCC(=O)N[C@@H](CCCCN)C(=O)N[C@@H](CC(C)C)C(=O)N[C@H](C(=O)N[C@@H](Cc1ccccc1)C(=O)N[C@@H](Cc1ccccc1)C(=O)N[C@@H](Cc1ccc2ccccc2c1)C(=O)O)C(C)C)OC(=O)CCCCCCCCCCCCCCC` (stereo partly shown) has a serum creatinine of 49.2 µmol/L and 49.6 µmol/L and 49.7 µmol/L and 42.9 µmol/L and 38.3 µmol/L (C57BL/6J mouse, serum; intraperitoneal, dose not given).
For `O=C1NC2(CC2)COc2ncc(F)cc2[C@H]2COCCN2c2ccn3ncc1c3n2`, “mean corpuscular haemoglobin” read 20.2 ± 0.6 pg (Sprague-Dawley rat, female, blood; oral, 10 mg/kg/day, 4 weeks, end of treatment, subacute toxicity).
With `CCCC[C@H]1C(=O)N(C)[C@@H](CCCC)C(=O)N[C@@H](CCCNC(=O)CN2CCN(CC(=O)O)CCN(CC(=O)O)CCN(CC(=O)O)CC2)C(=O)N[C@H](C(=O)NCC(N)=O)CSCC(=O)N[C@@H](Cc2ccc(O)cc2)C(=O)N(C)[C@@H](C)C(=O)N[C@@H](CC(N)=O)C(=O)N2CCC[C@H]2C(=O)N[C@@H](Cc2c[nH]cn2)C(=O)N[C@@H](CC(C)C)C(=O)N(C)CC(=O)N[C@@H](Cc2c[nH]c3ccccc23)C(=O)N[C@@H](CO)C(=O)N[C@@H](Cc2c[nH]c3ccccc23)C(=O)N1C` [gallium-68 labelled] the tissue uptake was 0.62 ± 0.3 %ID/g (NOD/SCID mice with CHO-hPD-L1 xenograft, brain; 60 min post injection).
For `CC[C@H](C)[C@H](NC(=O)[C@H](C)NC(=O)CNC(=O)[C@H](Cc1ccccc1)NC(=O)[C@H](CC(N)=O)NC(=O)[C@H](CC(N)=O)NC(=O)[C@H](CO)NC(=O)[C@H](CO)NC(=O)[C@H](Cc1c[nH]cn1)NC(=O)[C@@H](NC(=O)[C@H](CC(C)C)NC(=O)[C@H](Cc1ccccc1)NC(=O)[C@H](CC(N)=O)NC(=O)[C@H](C)NC(=O)[C@H](CC(C)C)NC(=O)[C@H](CCCNC(=N)N)NC(=O)[C@H](CCC(N)=O)NC(=O)[C@@H](NC(=O)[C@H](C)NC(=O)[C@@H]1CSSC[C@H](NC(=O)[C@@H](N)CCCCN)C(=O)N[C@@H](CC(N)=O)C(=O)N[C@@H]([C@@H](C)O)C(=O)N[C@@H](C)C(=O)N[C@@H]([C@@H](C)O[C@H]2O[C@H](CO)[C@H](O)[C@H](O[C@@H]3O[C@H](CO)[C@H](O)[C@H](O)[C@H]3O)[C@H]2NC(C)=O)C(=O)N1)[C@@H](C)O)C(C)C)C(=O)N[C@@H](CC(C)C)C(=O)N[C@@H](CO)C(=O)N[C@@H](CO)C(=O)N[C@H](C(=O)N[C@@H](CC(N)=O)C(=O)N[C@H](C(=O)NCC(=O)N[C@@H](CO)C(=O)N[C@@H](CC(N)=O)C(=O)N[C@H](C(=O)N[C@@H](Cc1ccc(O)cc1)C(N)=O)[C@@H](C)O)C(C)C)[C@@H](C)O`, the thermodynamic solubility was 81 µg/mL (≈ 19 µM) (PBS; 1 h, pH 7.4).
With `CSCC[C@H](NC(=O)CNC(=O)[C@H](CCCCN)NC(=O)[C@H](CC(C)C)NC(=O)[C@@H]1CCCN1C(=O)[C@H](CO)NC(=O)[C@H](Cc1c[nH]cn1)NC(=O)[C@H](Cc1c[nH]c2ccccc12)NC(=O)[C@H](CCCNC(=N)N)NC(=O)[C@H](CC(C)C)NC(=O)[C@H](CCCNC(=N)N)NC(=O)[C@H](Cc1c[nH]c2ccccc12)NC(=O)[C@H](CS)NC(=O)CCCCCNC(=O)CN1CCN(CC(=O)O)CCN(CC(=O)O)CCN(CC(=O)O)CC1)C(=O)O` [copper-64 labelled] the tissue uptake was 3.29 %ID/g (male C57BL/6J mice, B16-F10 tumour, small intestine; intravenous, 1.85 MBq, 18 h).
`C=Cc1c(C)c2cc3nc(c(CC(=O)O)c4[nH]c(cc5nc(cc1[nH]2)C(C)=C5CC)c(C)c4C(=O)O)[C@@H](CCC(=O)NCCCC[C@H](NC(C)=O)C(=O)N[C@@H](Cc1ccccc1)C(=O)N[C@@H](Cc1ccccc1)C(=O)N[C@H](C(=O)N[C@@H](CC(C)C)C(=O)N[C@@H](CCCCN)C(=O)N[C@@H](CO)C(=O)NCC(=O)N[C@@H](CCC(N)=O)C(=O)N[C@@H](Cc1ccc(O)cc1)C(=O)N[C@@H](C)C(=O)N[C@@H](CO)C(=O)N[C@@H](Cc1ccc(O)cc1)C(=O)N[C@@H](Cc1c[nH]cn1)C(=O)N[C@@H](CS)C(=O)N[C@@H](Cc1c[nH]c2ccccc12)C(=O)N[C@@H](CS)C(=O)N[C@@H](Cc1c[nH]c2ccccc12)C(=O)N[C@@H](CCCNC(=N)N)C(=O)N[C@@H](CC(=O)O)C(=O)N1CCC[C@H]1C(=O)NCC(=O)N[C@@H](CCCNC(=N)N)C(=O)N[C@@H](CO)C(=O)NCC(=O)NCC(=O)N[C@@H](CO)C(=O)N[C@@H](CCCCN)C(N)=O)C(C)C)[C@@H]3C` gave a blood concentration of 55.6 µg/mL and 67.4 µg/mL (mouse, blood; 12 h).
`CC(=O)NCCCC[C@@H]1NC(=O)[C@H](Cc2c[nH]c3c(C)cccc23)NC(=O)[C@H]([C@@H](C)O)NC(=O)[C@H](CC(N)=O)NC(=O)[C@@H](NC(C)=O)C(C)(C)SSC(C)(C)[C@@H](C(=O)N[C@@H](Cc2ccc(OCCN)cc2)C(=O)N[C@@H](Cc2ccc3ccccc3c2)C(=O)NC2(C(=O)N[C@@H](CCC(=O)O)C(=O)N[C@@H](CC(N)=O)C(=O)N[C@@H](Cc3cccnc3)C(=O)N(C)CC(N)=O)CCOCC2)NC1=O` gave a fraction unbound of 28.2 ± 0.4% (equilibrium dialysis; rabbit plasma; 1 µM).
For `CC(C)[C@@H]1NC(=O)CNC(=O)[C@H](CC(N)=O)NC(=O)[C@H](CCCNC(=N)N)NC(=O)[C@H](Cc2ccc(O)cc2)NC(=O)[C@H](C(C)C)NC(=O)[C@@H](NC(=O)[C@@H](NC(=O)[C@H](CC(N)=O)NC(=O)[C@H](Cc2c[nH]c3ccccc23)NC(=O)[C@H](C)NC(=O)[C@H](Cc2ccccc2)NC(=O)CNC(=O)[C@H](CCCCN)NC(=O)[C@H](Cc2ccccc2)NC(=O)[C@H](Cc2ccccc2)NC(=O)[C@H](CCCCN)NC(=O)OCC2c3ccccc3-c3ccccc32)C(C)C)CSSC[C@@H](C(=O)N[C@@H](Cc2c[nH]cn2)C(=O)N[C@@H](CCCNC(=N)N)C(=O)N[C@@H](CCCNC(=N)N)C(=O)N[C@@H](C)C(=O)N[C@@H](CC(N)=O)C(N)=O)NC(=O)[C@H](C(C)C)NC(=O)[C@H](CCCNC(=N)N)NC1=O`, the albumin was 34 ± 0.78 g/L (ICR mouse, blood; intramammary, 10 mg/kg, day 5, 3 d dosing).

For quick reference, copied from above:
`CC(=O)CCC1C(=O)NC(C(C)C)C(=O)NC(Cc2cc(O)cc(F)c2)C(=O)N2CCCC(N2)C(=O)OC(C(C)=CC=CC(=O)N2CCCCO2)CC=CC=CC(O)C(C)C1O` (stereo not shown) gave a total bilirubin of 3.7 µM (CD-1 mice, serum; oral, 250 mg/kg repeated, day 7).
